Measurements from different studies.
Numbered parts are unrelated; each lists some results of a single study. Positions count from the first letter of the parent shown.

Block 1 — technique: protein binding microarray; form: double-stranded DNA, one strand shown; matrix: in vitro; concentration: not given; relative to: not given; reading: higher = stronger binding; measurement: E-score
Target: Histone acetyltransferase KAT6A, winged helix 2, GST fusion (KAT6A, Homo sapiens, UniProt Q92794, residues 85-181)
Setting: 8-mer, flanks averaged, mean of 2 arrays, mostly near background
Target sequence (chain): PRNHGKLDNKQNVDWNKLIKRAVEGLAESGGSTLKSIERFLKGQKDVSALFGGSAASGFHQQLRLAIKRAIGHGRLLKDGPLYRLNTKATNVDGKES
ATGGGCTC: -0.0936
AAAGGTTG: -0.146
CATTCCGC: -0.0422
GAGTGGGA: 0.00974
ACACTGGA: -0.0408
AACGCGAG: -0.0411
GCTCGCCA: 0.0613
TCTTAACA: 0.0176
AGCTTGCA: 0.134
GAATTGTC: 0.0724
AATACCGT: -0.0923
CCTTGCTA: 0.134
AATTCACC: 0.0835
CAGCGATC: 0.0133
CCAAAGTC: -0.0134
AGGGAAAG: 0.0145
ATTCGAAA: 0.0123
GAGGCAAA: 0.0946
AGAATGAG: -0.174
CAGTATCA: -0.189
ACGCGTAG: -0.0416
TCGTTGAA: 0.0387
AATACGGC: 0.106
ACAATTAG: -0.0189
CCCCTCCG: 0.176

Block 2 — target: CCNA1, cyclin fold, Cln2 fusion (human); technique: yeast growth competition, sequencing; matrix: yeast; setting: weak parent motif; relative to: not given; reading: higher = stronger binding; measurement: normalised enrichment score
Starting sequence: MICAL3 docking peptide (human); LQLRRQLSFSEDS
L7A: 0.0989
R5A: 0.144
S10M: 0.259
R4L: 0.0903
L7C: -0.0182
Q6E: 0.434
R4P: -0.0138
Q2M: 0.107
L3E: -0.108
S8C: 0.445
E11C: 0.444
D12I: 0.874
L3Q: 0.254
Q6S: 0.223
F9M: 0.392
Q2H: 0.198
E11A: 0.22
L3K: -0.115

Block 3 — technique: DHFR PCA, deep sequencing; matrix: yeast; with: (+)-ABA 200 µM; relative to: wild-type fitted maximum; reading: higher = stronger binding; measurement: relative binding score
Target: ABI1, truncated, D143A, DHFR fusion (Arabidopsis thaliana)
Setting: methotrexate growth selection, single substitutions
Starting sequence: PYL1, truncated, DHFR fusion (Arabidopsis thaliana); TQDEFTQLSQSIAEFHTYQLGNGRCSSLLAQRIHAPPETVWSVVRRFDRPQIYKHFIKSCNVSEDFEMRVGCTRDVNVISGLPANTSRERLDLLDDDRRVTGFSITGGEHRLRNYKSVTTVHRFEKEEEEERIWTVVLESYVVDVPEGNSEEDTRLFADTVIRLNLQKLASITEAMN
I172V: 102%
I133M: 112%
M176P: 96.3%
K54H: 9.55%
I33Y: -4.34%
L8W: 100%
V118T: 103%
Y115H: 5.27%
Q7T: 96.4%
S87V: 53%
D95L: 85.7%
R155F: 32.1%
L138S: 8.15%
E64Q: 103%
T119L: 99.5%
K54N: 16.7%
N149W: 4.17%
E129Y: 107%
E127L: 101%
R74Q: 5.88%
H16S: -2.81%
N85S: 105%
I105C: 86.1%
P146M: 36.8%
V70A: 96.4%

Block 4 — technique: RNA Bind-n-Seq; form: RNA; matrix: in vitro; concentration: not given; setting: RNA with constant flanks, ends assumed; relative to: input RNA pool; reading: higher = stronger binding; measurement: bound/input enrichment
Target: RING finger protein unkempt homolog, zinc fingers 1-6, GST-SBP tag (UNK, Homo sapiens, UniProt Q9C0B0, residues 30-357)
UniProt Q9C0B0, sequence (30-357, looked up): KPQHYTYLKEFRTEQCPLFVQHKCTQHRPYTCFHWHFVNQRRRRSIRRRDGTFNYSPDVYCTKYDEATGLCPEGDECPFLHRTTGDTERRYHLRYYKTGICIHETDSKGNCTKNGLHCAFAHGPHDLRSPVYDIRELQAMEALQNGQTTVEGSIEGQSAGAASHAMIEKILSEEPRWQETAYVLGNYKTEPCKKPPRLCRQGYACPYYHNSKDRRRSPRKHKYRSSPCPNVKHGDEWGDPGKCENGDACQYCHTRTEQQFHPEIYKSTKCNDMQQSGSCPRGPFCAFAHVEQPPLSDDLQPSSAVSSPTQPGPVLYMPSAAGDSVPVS
Shared flanks, not repeated: GGGAGUUCUACAGUCCGACGAUC … CAACAGAGGAUUGAGCAUCA
UCAGUGAUUAUUUUUCCAGCUCCGUGUUUCUCUAAGGAAUUAUUUCACACACGGACCAUCUUCCGCAGUUUCCUCAGUGAUGGAAUAUCAUGAAUGUGAGUCAUUAUGUAGCUGUCGUAC: 0.271 ratio
CUAUUCGACUUAGGCUCCAACGUAACUGCAAUUUAAUGUUGGUAGUAUAGCAAAUUAUGAACCGAUUUGUUGUAUGUUUUGAAGUCACAUGCUUACAUGCUUAAAUCUGGAUAUCAGAAU: 0.4 ratio
AUAAUGUUUGAAUCCUUCAAUGUUCCAGGCUUGUACAUUGCUGUGCAGGCUGUUCUUGCCUCCGCUGCAUCCUGGACCUCAAGACAAGUAGGAGAGCGGACGCUGACGGGUACAGUAAUA: 0.17 ratio
CUUGAUUUCCUACGAAUCAGUGACACAGAAGAGCUUCCAGAAUUUAAGAGUUUUGAGGAACCCGAACCUCCCAAACAUUCAAAAGUCAAACGGCAAAGCAGCACCCCUAGUGCUCCUGAA: 0.268 ratio
CUCCUGGCCCCCAUUAGAUUGCUUUCUUUCUCCAGCGCAGGGUCGUGAUGUGUCCGUCUAAACCGCGUUUUGCAUUAUUUCUAGAUGAGUGCAACUGUCAAAGCAAUAUGGCUUCAGCGG: 0.553 ratio
AAUUUUAACCAAGAAUCAGAAGGUAGAAAUUCAGGACCAUGGUUGUCUUCUUCACUCCGAAACCGAUGCACACCUUUGUUCUCGAGAAGGAGGCGAGAGGGAAGGGAUGAGUCUUCAAGA: 0.265 ratio
GAGAUGCAUCCAGUGAUGUGAGGGGGACCUCUGGGGACUGUCAUUCUCAGUAUCAUGCCGGAAUUUAAAAAGCCAAAAUACUAAUUCUUUCUUUGUAGUGUGUAAGGGAGUGUUUUUAAA: 0.5 ratio
AGCAGAUGCCCUCUUGCAGGGUGGAUGAGUCAGGCAGGCAGAACCUCCUUAAGUGGUCCACUCCGUGUUACCAGCAGACUGCAGACACUGCAGAGCAGGAACCUCACUCAGUACCUGUCU: 0.0485 ratio
AAAGAAAAUGGAGAUGUAAAGAUUUUACUGAAAAGUGGGAAGGAGAAACCAAAAACAAAUACCGAAGACUUACAAAUUAAAAAAGUAAAGAAGAAAAAGAAAAAGAAACACAAAGAGAAU: 0.397 ratio
AGGAUGGGGUUUGUUAAAGUUGUUAAGAAUAAGGCCUACUUUAAGAGAUACCAAGUGAAAUUCCGAAGACGACGAGAGGGUAAAACUGAUUAUUAUGCUCGGAAACGCUUGGUGAUACAA: 0.341 ratio
GGUAAGCUAAUCGCGGUGAUUGGAGACGAGGACACGGUGACUGGUUUCCUGUUGGGCGGCACCGGGGAGCUAAACAAGAACCGCCACCCUAAUUUCCUGGUAGUGGAGAAGGAUACCACC: 0.206 ratio

Block 5 — target: FOSB, bZIP domain (human); technique: DHFR protein complementation; matrix: yeast; relative to: wild-type JUN-FOS pair; reading: higher = stronger binding; measurement: binding fitness
Setting: single substitutions, most at no-binding floor
Starting sequence: JUN, bZIP domain (human); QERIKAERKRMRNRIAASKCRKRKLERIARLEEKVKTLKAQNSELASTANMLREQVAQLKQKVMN
A49P: -1.36 natural log
L52S: -1.52 natural log
A57P: -1.34 natural log
V56F: -1.22 natural log
K39P: -1.38 natural log
A46P: -1.37 natural log
K34P: -1.37 natural log
L38E: -1.39 natural log
